Assay results pooled from the literature.
Each numbered part is a random draw from the data of one study; scales do not carry over between parts.
Chain of UniProt P10721 (whole entry, unmodified, looked up): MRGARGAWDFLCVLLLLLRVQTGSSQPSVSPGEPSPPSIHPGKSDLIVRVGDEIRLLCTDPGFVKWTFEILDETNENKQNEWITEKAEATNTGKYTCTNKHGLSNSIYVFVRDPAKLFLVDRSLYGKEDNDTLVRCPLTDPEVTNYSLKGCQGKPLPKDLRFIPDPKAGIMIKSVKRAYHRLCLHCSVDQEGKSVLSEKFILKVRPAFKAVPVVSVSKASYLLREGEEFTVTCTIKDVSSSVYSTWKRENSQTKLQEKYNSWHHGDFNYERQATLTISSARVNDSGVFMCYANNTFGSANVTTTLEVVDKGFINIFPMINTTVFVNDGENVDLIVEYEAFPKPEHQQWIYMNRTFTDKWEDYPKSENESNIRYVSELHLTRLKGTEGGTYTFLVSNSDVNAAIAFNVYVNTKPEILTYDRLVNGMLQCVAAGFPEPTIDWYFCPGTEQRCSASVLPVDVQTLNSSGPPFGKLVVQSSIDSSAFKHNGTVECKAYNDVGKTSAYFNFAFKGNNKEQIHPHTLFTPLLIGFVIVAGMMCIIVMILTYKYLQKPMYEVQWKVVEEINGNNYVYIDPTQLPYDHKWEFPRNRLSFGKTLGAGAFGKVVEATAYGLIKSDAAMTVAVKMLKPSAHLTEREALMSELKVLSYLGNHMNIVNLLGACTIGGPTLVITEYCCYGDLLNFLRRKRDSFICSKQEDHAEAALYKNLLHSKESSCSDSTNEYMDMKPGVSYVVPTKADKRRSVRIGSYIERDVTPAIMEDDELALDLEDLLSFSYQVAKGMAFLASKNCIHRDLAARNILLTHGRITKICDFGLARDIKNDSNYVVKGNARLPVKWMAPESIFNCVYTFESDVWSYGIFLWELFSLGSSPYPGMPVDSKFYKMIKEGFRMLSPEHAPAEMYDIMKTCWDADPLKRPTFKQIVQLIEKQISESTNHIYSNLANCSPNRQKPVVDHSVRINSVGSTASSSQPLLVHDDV
Chain of UniProt O95819 (whole entry, looked up): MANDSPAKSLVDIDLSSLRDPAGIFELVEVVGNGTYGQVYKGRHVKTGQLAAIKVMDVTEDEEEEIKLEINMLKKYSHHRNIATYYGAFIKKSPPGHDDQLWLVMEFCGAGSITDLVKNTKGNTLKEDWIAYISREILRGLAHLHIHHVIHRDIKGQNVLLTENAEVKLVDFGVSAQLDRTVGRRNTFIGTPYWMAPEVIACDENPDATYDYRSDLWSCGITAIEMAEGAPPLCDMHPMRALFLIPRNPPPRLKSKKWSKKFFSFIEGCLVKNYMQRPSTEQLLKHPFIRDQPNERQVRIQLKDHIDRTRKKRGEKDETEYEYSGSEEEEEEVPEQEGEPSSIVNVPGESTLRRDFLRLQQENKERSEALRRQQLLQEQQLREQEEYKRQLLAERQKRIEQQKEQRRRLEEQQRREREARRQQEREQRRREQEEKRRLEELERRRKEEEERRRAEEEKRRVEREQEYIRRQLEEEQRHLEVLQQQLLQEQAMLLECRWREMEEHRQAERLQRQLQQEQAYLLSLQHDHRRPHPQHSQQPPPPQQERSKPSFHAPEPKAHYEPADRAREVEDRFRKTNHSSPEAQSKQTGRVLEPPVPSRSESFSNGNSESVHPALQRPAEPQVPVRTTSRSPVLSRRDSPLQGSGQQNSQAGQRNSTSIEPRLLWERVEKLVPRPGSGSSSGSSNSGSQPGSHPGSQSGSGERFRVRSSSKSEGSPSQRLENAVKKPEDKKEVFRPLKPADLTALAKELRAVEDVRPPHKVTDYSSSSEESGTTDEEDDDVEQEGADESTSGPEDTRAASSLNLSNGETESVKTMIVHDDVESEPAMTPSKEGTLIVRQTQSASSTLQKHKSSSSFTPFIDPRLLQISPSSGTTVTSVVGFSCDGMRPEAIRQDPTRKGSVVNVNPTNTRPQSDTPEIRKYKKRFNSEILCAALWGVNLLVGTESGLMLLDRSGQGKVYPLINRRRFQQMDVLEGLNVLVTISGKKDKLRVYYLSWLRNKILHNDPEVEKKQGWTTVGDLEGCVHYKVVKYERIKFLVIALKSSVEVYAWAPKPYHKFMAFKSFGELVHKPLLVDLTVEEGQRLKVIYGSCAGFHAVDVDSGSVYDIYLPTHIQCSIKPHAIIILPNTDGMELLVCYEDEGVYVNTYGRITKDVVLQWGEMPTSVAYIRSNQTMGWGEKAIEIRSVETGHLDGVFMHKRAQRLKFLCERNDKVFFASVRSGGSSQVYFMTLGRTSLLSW
Chain of UniProt Q9Y4K4 (whole entry, looked up): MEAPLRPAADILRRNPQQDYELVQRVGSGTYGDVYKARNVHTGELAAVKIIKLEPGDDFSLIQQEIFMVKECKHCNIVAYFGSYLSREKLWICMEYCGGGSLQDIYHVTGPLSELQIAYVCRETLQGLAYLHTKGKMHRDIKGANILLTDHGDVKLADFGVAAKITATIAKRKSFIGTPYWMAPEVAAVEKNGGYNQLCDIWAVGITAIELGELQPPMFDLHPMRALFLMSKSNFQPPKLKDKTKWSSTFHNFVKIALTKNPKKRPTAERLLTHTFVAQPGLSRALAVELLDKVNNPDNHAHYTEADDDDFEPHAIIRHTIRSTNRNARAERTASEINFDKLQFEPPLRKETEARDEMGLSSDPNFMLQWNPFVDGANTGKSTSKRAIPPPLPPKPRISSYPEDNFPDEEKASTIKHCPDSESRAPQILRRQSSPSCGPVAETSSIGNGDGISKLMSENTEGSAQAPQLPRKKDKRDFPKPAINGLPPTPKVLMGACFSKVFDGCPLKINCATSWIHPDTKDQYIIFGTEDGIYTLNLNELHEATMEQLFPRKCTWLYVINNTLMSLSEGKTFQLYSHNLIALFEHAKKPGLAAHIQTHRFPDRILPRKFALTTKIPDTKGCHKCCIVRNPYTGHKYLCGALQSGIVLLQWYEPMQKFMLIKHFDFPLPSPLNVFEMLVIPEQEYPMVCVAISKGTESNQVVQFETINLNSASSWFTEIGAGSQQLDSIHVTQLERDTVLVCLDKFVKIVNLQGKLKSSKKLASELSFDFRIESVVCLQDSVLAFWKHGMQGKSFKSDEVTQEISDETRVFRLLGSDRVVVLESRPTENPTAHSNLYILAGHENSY
Chain of UniProt P48729 (whole entry, looked up): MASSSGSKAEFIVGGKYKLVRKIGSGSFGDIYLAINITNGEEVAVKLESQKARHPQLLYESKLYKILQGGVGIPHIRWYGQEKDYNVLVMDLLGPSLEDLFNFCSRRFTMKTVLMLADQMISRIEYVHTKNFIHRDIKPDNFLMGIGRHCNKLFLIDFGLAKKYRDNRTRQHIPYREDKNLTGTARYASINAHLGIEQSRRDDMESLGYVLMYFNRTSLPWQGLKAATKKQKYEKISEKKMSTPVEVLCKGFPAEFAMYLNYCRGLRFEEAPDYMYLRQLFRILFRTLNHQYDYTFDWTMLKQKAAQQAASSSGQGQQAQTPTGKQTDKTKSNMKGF

Study 1 — effect on: enzyme activity; mode: inhibitor; concentration: 0.5 µM; relative to: control
SMILES: COc1cc(Nc2c(C#N)cnc3cc(OCCCN4CCN(C)CC4)c(OC)cc23)c(Cl)cc1Cl
| target | remaining activity [%] |
| --- | --- |
| Dual specificity tyrosine-phosphorylation-regulated kinase 3 (DYRK3, Homo sapiens, UniProt O43781) | 91.8 |
| Homeodomain-interacting protein kinase 4 (HIPK4, Homo sapiens, UniProt Q8NE63) | 74.6 |
| Cyclin-dependent kinase 6, with cyclin D3 (CDK6, Homo sapiens, UniProt Q00534) | 122 |
| Tyrosine-protein kinase Blk (BLK, Homo sapiens, UniProt P51451) | 20.7 |
| Mitogen-activated protein kinase kinase kinase kinase 4 (MAP4K4, Homo sapiens, UniProt O95819) | 1.03 |
| Cyclin-dependent kinase 1, with cyclin B (CDK1, Homo sapiens, UniProt P06493) | 95.9 |
| Serine/threonine-protein kinase 16 (STK16, Homo sapiens, UniProt O75716) | 85.1 |
| Ribosomal protein S6 kinase alpha-6 (RPS6KA6, Homo sapiens, UniProt Q9UK32) | 62 |
| Testis-specific serine/threonine-protein kinase 2 (TSSK2, Homo sapiens, UniProt Q96PF2) | 83.9 |
| Ribosomal protein S6 kinase alpha-5 (RPS6KA5, Homo sapiens, UniProt O75582) | 90.8 |
| Phosphorylase b kinase gamma catalytic chain, skeletal muscle/heart isoform (PHKG1, Homo sapiens, UniProt Q16816) | 52.1 |
| Ephrin type-B receptor 4 (EPHB4, Homo sapiens, UniProt P54760) | 12.5 |
| Serine/threonine-protein kinase WNK3 (WNK3, Homo sapiens, UniProt Q9BYP7) | 91.8 |
| Serine/threonine-protein kinase 17A (STK17A, Homo sapiens, UniProt Q9UEE5) | 107 |
| 3-phosphoinositide-dependent protein kinase 1 (PDPK1, Homo sapiens, UniProt O15530) | 89.8 |
| Tyrosine-protein kinase Srms (SRMS, Homo sapiens, UniProt Q9H3Y6) | 90.6 |
| Ephrin type-A receptor 4 (EPHA4, Homo sapiens, UniProt P54764) | 27 |
| MAP kinase-activated protein kinase 3 (MAPKAPK3, Homo sapiens, UniProt Q16644) | 98.2 |
| Homeodomain-interacting protein kinase 2 (HIPK2, Homo sapiens, UniProt Q9H2X6) | 89 |
| cAMP-dependent protein kinase catalytic subunit gamma (PRKACG, Homo sapiens, UniProt P22612) | 99.2 |
| Cyclin-dependent kinase 4, with cyclin D3 (CDK4, Homo sapiens, UniProt P11802) | 103 |

Study 2
Structure (SMILES): CC(C)n1cnc(-c2ccc(F)cc2)c1-c1ncc(C(=O)Nc2ccc(N3CCN(C)CC3)cc2)[nH]1
| test | system | conditions | patients with adverse event [%] |
| --- | --- | --- | --- |
| Phase 2a trial, item: haemoptysis | human, idiopathic pulmonary fibrosis | all compound arms, grade 4 | 0 |
| Phase 2a trial, item: blood urea increased | human, idiopathic pulmonary fibrosis | all compound arms total, grade 3 | 0 |
| Phase 2a trial, item: hypoalbuminaemia | human, idiopathic pulmonary fibrosis | all compound arms total, grade 3 | 0 |
| Phase 2a trial, item: eosinophilia myalgia syndrome | human, idiopathic pulmonary fibrosis | 60 mg once daily, grade 4 | 0 |
| Phase 2a trial, item: hepatic steatosis | human, idiopathic pulmonary fibrosis | all compound arms total, grade 5 | 0 |
| Phase 2a trial, item: hypocalcaemia | human, idiopathic pulmonary fibrosis | 30 mg once daily, grade 1 | 0 |
| item: abnormal liver function test, grade 3 | idiopathic pulmonary fibrosis patients | oral, 30 mg once daily | 0 |
| item: any adverse event, grade 5 | idiopathic pulmonary fibrosis patients | oral, 60 mg once daily | 0 |
| Phase 2a trial, item: hypoalbuminaemia | human, idiopathic pulmonary fibrosis | 60 mg once daily, grade 3 | 0 |
| Phase 2a trial, item: hypercholesterolaemia | human, idiopathic pulmonary fibrosis | all compound arms total, grade 4 | 0 |

Study 3 — effect on: cell-free assay; technique: competition with immobilised ligand; concentration: 1 µM
SMILES: CN([C@@H]1CCc2c(CC(=O)O)c3ccccc3n2C1)S(=O)(=O)c1ccc(F)cc1
| target | remaining binding |
| --- | --- |
| Mast/stem cell growth factor receptor Kit (KIT, Homo sapiens, UniProt P10721) | 100% |
| Phosphatidylinositol 4,5-bisphosphate 3-kinase catalytic subunit delta isoform (PIK3CD, Homo sapiens, UniProt O00329) | 95% |
| Mast/stem cell growth factor receptor Kit (KIT, Homo sapiens, UniProt P10721, L576P) | 100% |
| Serine/threonine-protein kinase Nek10 (NEK10, Homo sapiens, UniProt Q6ZWH5) | 85% |
| Mitogen-activated protein kinase kinase kinase kinase 5 (MAP4K5, Homo sapiens, UniProt Q9Y4K4) | 100% |
| Cyclin-dependent kinase-like 5 (CDKL5, Homo sapiens, UniProt O76039) | 74% |
| Serine/threonine-protein kinase 4 (STK4, Homo sapiens, UniProt Q13043) | 98% |
| Serine/threonine-protein kinase LATS2 (LATS2, Homo sapiens, UniProt Q9NRM7) | 100% |
| Homeodomain-interacting protein kinase 1 (HIPK1, Homo sapiens, UniProt Q86Z02) | 100% |
| Dual specificity protein kinase CLK4 (CLK4, Homo sapiens, UniProt Q9HAZ1) | 100% |
| cGMP-dependent protein kinase 1 (PRKG1, Homo sapiens, UniProt Q13976) | 100% |
| Cytoplasmic tyrosine-protein kinase BMX (BMX, Homo sapiens, UniProt P51813) | 100% |
| Uncharacterized serine/threonine-protein kinase SBK3 (SBK3, Homo sapiens, UniProt P0C264) | 100% |
| Epidermal growth factor receptor (EGFR, Homo sapiens, UniProt P00533, G719S) | 100% |
| Casein kinase I isoform alpha (CSNK1A1, Homo sapiens, UniProt P48729) | 80% |

Single results of other studies — technique: SPR
Target: DDB1- and CUL4-associated factor 1 (DCAF1, Homo sapiens, UniProt Q9Y4B6)
Chain of UniProt Q9Y4B6 (whole entry, looked up): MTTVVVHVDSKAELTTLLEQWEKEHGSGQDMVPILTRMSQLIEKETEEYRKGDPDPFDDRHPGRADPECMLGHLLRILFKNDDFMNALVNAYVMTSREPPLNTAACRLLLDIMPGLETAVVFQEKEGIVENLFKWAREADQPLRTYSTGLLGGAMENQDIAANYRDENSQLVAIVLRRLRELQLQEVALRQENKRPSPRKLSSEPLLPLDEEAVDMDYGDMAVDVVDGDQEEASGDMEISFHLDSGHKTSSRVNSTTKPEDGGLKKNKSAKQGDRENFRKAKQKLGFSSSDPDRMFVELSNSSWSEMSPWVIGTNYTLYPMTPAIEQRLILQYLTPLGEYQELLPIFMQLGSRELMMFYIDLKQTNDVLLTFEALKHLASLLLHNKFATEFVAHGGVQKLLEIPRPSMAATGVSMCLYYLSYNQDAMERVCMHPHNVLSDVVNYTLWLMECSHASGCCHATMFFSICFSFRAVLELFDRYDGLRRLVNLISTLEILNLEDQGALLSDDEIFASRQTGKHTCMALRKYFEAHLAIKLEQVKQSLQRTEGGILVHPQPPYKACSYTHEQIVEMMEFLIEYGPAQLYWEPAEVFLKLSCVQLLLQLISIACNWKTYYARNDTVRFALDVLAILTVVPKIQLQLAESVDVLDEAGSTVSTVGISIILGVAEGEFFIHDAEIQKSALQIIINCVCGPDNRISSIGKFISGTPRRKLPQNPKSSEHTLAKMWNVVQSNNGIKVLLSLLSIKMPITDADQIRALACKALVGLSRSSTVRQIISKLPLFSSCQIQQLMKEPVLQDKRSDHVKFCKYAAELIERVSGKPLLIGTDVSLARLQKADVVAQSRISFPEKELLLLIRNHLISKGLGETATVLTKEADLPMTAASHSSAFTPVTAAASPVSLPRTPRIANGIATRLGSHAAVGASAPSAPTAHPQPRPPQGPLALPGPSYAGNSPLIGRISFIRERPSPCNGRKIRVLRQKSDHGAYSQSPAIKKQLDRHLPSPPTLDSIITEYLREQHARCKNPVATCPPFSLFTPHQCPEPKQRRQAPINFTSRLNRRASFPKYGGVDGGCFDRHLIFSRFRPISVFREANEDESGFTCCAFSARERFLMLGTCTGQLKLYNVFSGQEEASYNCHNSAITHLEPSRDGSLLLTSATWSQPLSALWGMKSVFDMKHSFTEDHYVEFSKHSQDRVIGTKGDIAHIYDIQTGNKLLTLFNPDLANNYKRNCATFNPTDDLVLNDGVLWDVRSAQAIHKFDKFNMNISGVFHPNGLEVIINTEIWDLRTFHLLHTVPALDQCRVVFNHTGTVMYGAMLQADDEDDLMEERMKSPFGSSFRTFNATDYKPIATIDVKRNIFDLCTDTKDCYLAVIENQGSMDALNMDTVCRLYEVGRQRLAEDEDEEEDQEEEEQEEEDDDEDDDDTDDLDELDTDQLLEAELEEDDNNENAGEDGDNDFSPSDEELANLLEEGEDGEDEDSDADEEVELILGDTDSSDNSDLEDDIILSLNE
| SMILES | Kd [µM] |
| --- | --- |
| C[C@@H]1CN(c2ccc(-c3cc(C(=O)NCCOCCOCCOCCOCCNC(=O)/C=C/c4[nH]cc(C(=O)N[C@@H](CC(N)=O)c5ccc(F)c(Cl)c5)c4-c4ccc(Cl)cc4F)ccc3F)cc2NC(=O)c2c[nH]c(=O)cc2C(F)(F)F)C[C@H](C)N1C | 0.054 |
| C[C@@H]1CN(c2ccc(-c3cc(C(=O)NCCOCCOCCOCCOCCOCCOCCNC(=O)/C=C/c4[nH]cc(C(=O)N[C@@H](CC(N)=O)c5ccc(F)c(Cl)c5)c4-c4ccc(Cl)cc4F)ccc3F)cc2NC(=O)c2ccc(F)cc2C(F)(F)F)C[C@H](C)N1C | 0.0393 |

Repeated from above (study 2):
| test | system | conditions | patients with adverse event [%] |
| --- | --- | --- | --- |
| Phase 2a trial, item: hypoalbuminaemia | human, idiopathic pulmonary fibrosis | 60 mg once daily, grade 3 | 0 |
| Phase 2a trial, item: blood urea increased | human, idiopathic pulmonary fibrosis | all compound arms total, grade 3 | 0 |
| Phase 2a trial, item: hepatic steatosis | human, idiopathic pulmonary fibrosis | all compound arms total, grade 5 | 0 |
